# Assay results gathered from unrelated publications.
# Protocols differ between the studies behind these lines. ± marks the error that the study gave.
# Cell line: A549
SMILES,test,setting,IC50
Cc1cc(C)c(C2CN(C)C3(C(=O)Nc4ccccc43)C2C(=O)c2ccccc2)c(C)c1 (stereo not drawn),"cell growth or viability, MTT",24 h,6.6 µM
Cc1ccc(NC(=O)Cn2cc(COc3ncnc4[nH]cnc34)nn2)c(C)c1,"cell growth or viability, MTT",,12.3 µM
Nc1nc(-c2cccc(NC(=O)c3cc4cc(Cl)ccc4[nH]3)c2)c(C(=O)c2ccccc2)[nH]1,"cell growth or viability, resazurin",72 h,15 µM
O=c1c(O)c(-c2ccccc2)oc2cc3ccccc3cc12,"cell viability, MTT","visible light, BSA 0.6 mM",95.4 ± 3.91 µM
Cc1cc(C)c(C2CN(C)C3(C(=O)Nc4ccccc43)C2C(=O)c2ccc(Cl)cc2)c(C)c1 (stereo not drawn),"cell growth or viability, MTT",48 h,10.3 µM
CC(C(=O)[O-])C(=O)[O-].CC(C(=O)[O-])C(=O)[O-].NCCN.[Pt+4],"cell viability, MTT",96 h,> 200 µM
O=[N+]([O-])c1ccc2nc(/C=C/c3cccs3)c(/C=C/c3cccs3)nc2c1,"cell growth or viability, MTT",72 h,> 100 µM
Cc1cc(C)c(C2C3CCCN3C3(C(=O)Nc4ccccc43)C2C(=O)c2ccc(F)cc2)c(C)c1 (stereo not drawn),"cell growth or viability, MTT",24 h,64.4 µM
O=[N+]([O-])c1ccc(/C=C/c2nc3ccc(Br)cc3nc2/C=C/c2ccc([N+](=O)[O-])cc2)cc1,"cell growth or viability, MTT",72 h,> 100 µM
CC(=NN=C(N)[S-])C(C)=NN=C(N)[S-].NCc1ccccc1.NCc1ccccc1.O=[N+]([O-])[O-].[Co+3],"cell viability, MTT","24 h hypoxic, 48 h normoxic, hypoxic treatment",> 500 µM
O=[N+]([O-])c1ccc(-n2nc(-c3cccs3)sc2=NN=Cc2cn(-c3ccccc3)nc2-c2ccccc2)cc1,cell growth or viability,,30.6 µM
Cc1ccc(C(=O)C2C(c3c(C)cc(C)cc3C)C3CCCN3C23C(=O)Nc2ccccc23)cc1 (stereo not drawn),"cell growth or viability, MTT",48 h,3.48 µM
C=CCc1ccc(O)c(-c2ccc(O)c(CC=C)c2)c1,"cell proliferation, MTS","72 h, with: 10 µM BLM",5.01 µM
CCCCCCOC(C)c1c(C)c2cc3nc(c4c5[nH]c(cc6nc(cc1[nH]2)C(C)=C6CC)c(C)c5C(=O)C4)[C@@H](CCC(=O)O)[C@@H]3C (stereo partly drawn),cell growth or viability,"72 h, dark",> 90 µM
Cc1cc(C)c(C2C3CCCN3C3(C(=O)Nc4ccccc43)C2C(=O)c2ccc(Cl)cc2)c(C)c1 (stereo not drawn),"cell growth or viability, MTT",,< 10 µM
O=[N+]([O-])c1ccc2nc(/C=C/c3ccccc3)c(/C=C/c3ccccc3)nc2c1,"cell growth or viability, MTT",72 h,> 100 µM
C=CC1=C(C)c2cc3[nH]c(cc4nc(cc5[nH]c(cc1n2)c(C)c5CCC(=O)O)C(CCC(=O)O)=C4C)c(C)c3C=C,"cell growth or viability, resazurin",dark,> 100 µM
Nc1nc(-c2cc(Cl)cc(NC(=O)c3cc4cc(Br)ccc4[nH]3)c2)c(C(=O)c2ccccc2)[nH]1,"cell growth or viability, resazurin",72 h,17.8 µM
Cc1cccc(C(=O)C2C(c3c(C)cc(C)cc3C)C3CCCN3C23C(=O)Nc2ccccc23)c1 (stereo not drawn),"cell growth or viability, MTT",48 h,7.8 µM
CC(C=NN=C(N)[S-])=NN=C(N)[S-].N.N.O=[N+]([O-])[O-].[Co+3],"cell viability, MTT","24 h then 48 h recovery, normoxia",~16.9 µM
CN1CCC2(CC1)C/C(=N\N=C\c1ccc(N(C)C)cc1)c1ccccc1O2,"cell growth or viability, MTT",48 h,42.5 µM
O=[N+]([O-])c1ccc2nc(/C=C/c3ccco3)c(/C=C/c3ccco3)nc2c1,"cell growth or viability, MTT",72 h,> 100 µM
CCC(O)CC(=O)O[C@@H]1C[C@@H]2[C@@]3(C)CCC[C@](C)(CC)[C@@H]3CC[C@@]2(C)[C@@H]2C[C@@H](O)C3=C(C(=O)O[C@H]3C)[C@@]12C (stereo partly drawn),"cell growth or viability, CCK-8",24 h,≤ 25 µM
COc1cccc2c1C(=O)c1c(O)c3c(c(O)c1C2=O)C[C@@](O)(C(=O)CO)C[C@@H]3O[C@H]1C[C@H](N)[C@H](O)[C@H](C)O1,"cell growth or viability, MTT",72 h,3 µM
